# Experimental data collected from several papers.
# Each numbered part is a random draw from the data of one study; scales do not carry over between parts. Substitutions count along the parent as printed.

# Study 1 — method: RNA Bind-n-Seq; form: RNA; matrix: in vitro; tested at: not given; reference: input RNA pool; reading: higher = stronger binding
# Target: RING finger protein unkempt homolog, zinc fingers 1-6, GST-SBP tag (UNK, Homo sapiens, UniProt Q9C0B0, residues 30-357)
# Chain of UniProt Q9C0B0 (30-357, looked up): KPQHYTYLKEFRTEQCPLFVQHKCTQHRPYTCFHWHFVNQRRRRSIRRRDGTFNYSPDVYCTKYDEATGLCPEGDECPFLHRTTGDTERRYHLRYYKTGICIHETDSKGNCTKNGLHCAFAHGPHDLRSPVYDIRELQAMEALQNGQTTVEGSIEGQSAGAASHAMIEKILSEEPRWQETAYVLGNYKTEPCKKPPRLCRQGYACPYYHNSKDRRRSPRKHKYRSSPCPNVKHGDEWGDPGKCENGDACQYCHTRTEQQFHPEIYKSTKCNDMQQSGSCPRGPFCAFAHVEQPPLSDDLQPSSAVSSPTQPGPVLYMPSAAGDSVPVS
# Notes: RNA with constant flanks, human and mouse sites, ends assumed
# Constant ends, left off below: GGGAGUUCUACAGUCCGACGAUC … CAACAGAGGAUUGAGCAUCA
Sequence,bound/input enrichment [ratio]
CUUUAAGUCUCUGAGAGGAGGCUGAAGAGUGUUGGGGCUCCUGGGACAUACAUGUAGAGUUCCUAGCAAAGUGGGCGCCUUUCUCGUCCACAGCAUUUAAAGAGAGGAAGGAGAACCAUC,0.512
GCCCCUUCUCUCCCCUGUAACCUGUUUAUUAACCAUACCUGUCCUGAGUUCAUGGCCAAAACCUUAAAUAAGAAAAACAAAAGAAAAAGACAGUGGAAAAAAGAGACCAAGGCGCCUGCC,0.361
AAACUGACAGAAGUUGACAAUUAUCAUUUUUACUCAUCUAUACCCUCAAUGGAAAAAGAAGUAGGUAACUGUAGUCCACAUUUUCUUAAUGCUUUUGAGGAUUCCUUCAGCAGCAUCCUC,0.337
UUAAAAAUAGAAAAGGUCCUCAAGAGAAUGAGAGAAAUAAAAAAUGAACUUCUCCAAGCACAAAACCCUUCUGAAUUGUACCUGAGCUCCAAAACAGAAUUGCAGGGUUUAAUUGGACAG,0.429
GUCCUGAAGCUUUGUGUUUGGCUGCACCUGCAUAAGCUGCUACAAAUAGAAUAAAGAAUUCAUAGCCUGUAUCUAUCAUUUAGAUGCAUGGAAAAAUGGGCUUUGCACACAAUGGGUUUG,2.22
UUGUUAAAAUGCUAUUUCCUUUAUUACCUUGGAAACUGACUCAGCCUCAUGUUGCUCCUAAUUAGUGUUUAAGGCUCCCAUGAGUUGCAGAUAAAAUGAUUUAUUUUAACAAGUAGAAGG,6.57
ACAUGUCACGUAGAAGAGACUCUCGGUGAGCAUUGCCUGUGAACUAAUAAUCCAGUGGACAAUAGGCUUUGCACCAGGGUGAGGUCCAGACCUCUGCAGCACAGAGCUCCCGAUGGUUGG,0.338
GAGGCACAUCCUCACUGUAAACAGUAAUGCUAUAUGCAUGAAGCUUCUGUUUAUUGUUUUCCAUAUUUAAGGAAACAACAUCCCAUAAUAGAAAUGAGCAUGCAGGGCUAAGGCAUAUAG,0.232
CGGGGAGCUUUCUGUGAAGUGAGACCAGAUGAUAAAAGAAUUCUGGAAUUUUACAGCAAGUUAGGAUGUUUUGAAAUUGCAAAAAUGGAAGGAUUUCCAAAGGAUGUGGUUAUACUUGGU,0.769
CAUAAUAUUGACAUUCCUACAACACAACAGGUGCCACACAUUGAAGCACUUCUGAAAAGAAAGCUAUCAGAACAAGAAGAACUGAAGAAAAAACCUAGAAGAUCGUGUACUCUUCCAAAC,0.324
UGUGUCCCUGCCAUGAUCAGGUGUCUAUCAGAUGACGUAAAAACCAAGUUGCGUUCCGGUUUAGCCAUAAGCUCCUUGGGCCAGUGUGUUGAAGAACUUACCCUUAACAGUAUUGAUGCU,0.368

# Study 2 — method: RNA Bind-n-Seq; form: RNA; matrix: in vitro; tested at: 365 nM; reference: no-protein control; reading: higher = stronger binding
# Target: RNA binding protein fox-1 homolog 2, RRM domain, GST-SBP tag (RBFOX2, Homo sapiens, UniProt O43251-10, residues 100-194)
# Notes: natural RNA segment, single round, ends assumed
# Constant ends, left off below: GGGAGUUCUACAGUCCGACGAUC … UGGAAUUCUCGGGUGCCAA
# Target sequence (chain): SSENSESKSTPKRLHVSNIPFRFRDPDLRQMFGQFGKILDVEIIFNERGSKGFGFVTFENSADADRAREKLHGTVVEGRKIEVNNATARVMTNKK
Sequence,RBNS enrichment (R)
CUCCUCCACUCUAUAAGCAGUCAUCUUGGGAGACCGGGAGGAGAAGGUGGUGGGCUAGUCCUGUGUCCUCCUCCACUUCCCAUGCCUCUAUGUUACCCAUCUGUGUCUCC,0.514
GAGUUAAUUUUAUUGAUAAUAAAUUAUACACCAUGAAACUGCUCUUGGGCUACUGUAGAUUUGUAUCCUUGGUGAAUUUGGGGUUCCCAUCGGAUUGAACAUACACUGUA,0.446
CACUUUAUUUAAAGGCAAGCAAUAUUUUCUUGAUCAUAAAUAUUUUGUAAUGAAAUACUUCCUCUUUUCCAGGGCUUUGUAUGCACUUGUAUAAUUACAUUGAUGGCAAU,0.718
CAGUACCCACAUGGUCUGCAAAAGCCUGGCUUUGCUGGCAACUAUUGGAGAAUGCUUGGUUUGCAUGUCUUGUGAUUUCUCCUGUAUUGUUCCUAGCUAAUUUCAUGGCU,9.33
GGAGGGAGAACGCUAUAUUGGGUUCACAGUUACAUGGUGAUCAAAGAGAACUUCUCAGUCUCCAGGAAGAUAGCAUCUUUUCAUGAGUGUUUGAAUGAAAACAACACGAA,5.08
CUGUACCCAUGAACUCCCAGUUUGCGAAUUAUAGAGACAAUCUAUUUUGUUACUUGCACUUGUUAUUCGAACCACUGAGAGCGAGAUGGGAAGCAUAGAUAUCUAUAUUU,0.527
CUUUAUGCUCCUGUAAUCGGCUAACUGUGGAUUUGAUGUCAAGUAUGCAUGUUACCUUAUGUGUAUUUAAUCAUGAAACUUAAUUUUUGCACACUUGUUUGUACUGUUUU,3.55
GCUCUAGGGCUGUGCACUUUCCACUUUCCGGAGGAAUAGAGUUUUUCUUUUUUUCAACUCUCCAUCAAAUGUGCCUUAAAGUUAAGCAUUUUGACCCAAGUGUUUUAACU,0.39
CUGAGGCCUGGCUAGGGCCCUCCUGGGCAGAGCCCCUGCCUAGCCCUUCAGGCCUGAUGCCUCAGGCCUGAUUCCCUCCUUUUAAAGCAAUACCUUCAGGUCUGCCAUGC,0.319
GAGCUACUCAUGACUGAAGGGAAACUGCAGCUGGGAAGAGGAGCCUGUUUUUGUGAGAGACUUUUGCCUUCGUAAUGUUAACCGUUUCAGGACCACGUUUAUAGCUUCAG,0.559
CCUCAAAUCAGUGAUAAUUGGUUUGACUGUACCAUGGUUUGAUAUGUAGUUGGCACCAUGGUAUCAUAUAUUAAAACAAUAAUGCAAUUAGAAUUUGGGAGAAGCAAAUA,0.974
GCUGGAUUUUGGUUCCCUUGUAAAGACAGAGUGAAUUUCAGUAUAAAGAUCACCCGUUGUAUUCACCCCACACCCAGGGCUAGUAUAAACAUGACCCUGGGCUUCUGUAC,0.467

# Study 3 — target: CCNE2, cyclin fold, Cln2 fusion (human); method: yeast growth competition, sequencing; matrix: yeast; notes: strong parent motif; reference: not given; reading: higher = stronger binding
# Starting sequence: PKN2 docking peptide (human); VSAVRKLDFSDTM
Substitution,normalised enrichment score
D11N,5.24
A3T,3.12
A3C,5.06
L7W,0.0707
V4H,0.526
L7V,0.364
V4T,1.41
D8T,3.65
S2H,4.72
F9R,0.218
D8V,4.02
S2M,3.53
D8H,3.78
T12C,4.9

# Study 4 — method: protein-binding microarray; form: hairpin DNA; matrix: in vitro; tested at: not given; reference: not given; reading: higher = stronger binding
# Target: Cyclic AMP-dependent transcription factor ATF-1, full length (ATF1, Homo sapiens, UniProt P18846, residues 1-271)
# Notes: whole hairpin DNA, median over replicate spots
# Construct (chain): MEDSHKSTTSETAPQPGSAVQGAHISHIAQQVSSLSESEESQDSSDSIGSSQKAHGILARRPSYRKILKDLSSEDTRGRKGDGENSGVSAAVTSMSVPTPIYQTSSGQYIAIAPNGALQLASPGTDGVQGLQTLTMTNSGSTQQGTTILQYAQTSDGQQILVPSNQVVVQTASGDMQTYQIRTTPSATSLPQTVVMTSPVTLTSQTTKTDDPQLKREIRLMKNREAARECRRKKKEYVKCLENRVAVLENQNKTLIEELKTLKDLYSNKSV
Sequence,median fluorescence [a.u.]
GAGGCCCGCTGACGTCAGCCTCCTGGCTGACGTCAGCGGGCCTCACACTC (5mC at 7 37),10600
GAGGCCGGTTGACGTCAGCCTCCTGGCTGACGTCAACCGGCCTCACACTC,8330
GAGGCCGACGACGCCGTGCCTCCTGGCACGGCGTCGTCGGCCTCACACTC (5mC at 9 15 29 35),3940
GAGGCCGACGACTTCGTGCCTCCTGGCACGAAGTCGTCGGCCTCACACTC (5mC at 9 15 29 35),3170
GAGGCCGACCGCGTCGTGCCTCCTGGCACGACGCGGTCGGCCTCACACTC (5mC at 9 15 29),4060
GAGGCCGACGACGTCGCGCCTCCTGGCGCGACGTCGTCGGCCTCACACTC (5mC at 9 15 17 29 35),4600
GAGGCCGACGATGTCGTGCCTCCTGGCACGACATCGTCGGCCTCACACTC (5mC at 9 15 29 35),3050
GAGGCCGACGCCGTCGTGCCTCCTGGCACGACGGCGTCGGCCTCACACTC (5mC at 9 11 15 29 35),3680
GAGGCCGACGACCTCGTGCCTCCTGGCACGAGGTCGTCGGCCTCACACTC (5mC at 9 13 15 29 35),3170
GAGGCCTGCTGACGTCAGCCTCCTGGCTGACGTCAGCAGGCCTCACACTC,11400
GAGGCCGGCTGACGTCCGCCTCCTGGCGGACGTCAGCCGGCCTCACACTC (5mC at 17),5110
GAGGCCGACGGCGTCGTGCCTCCTGGCACGACGCCGTCGGCCTCACACTC (5mC at 9 15 29 35),3520
GAGGCCGGATGACGTCAGCCTCCTGGCTGACGTCATCCGGCCTCACACTC (5mC at 13 31),3540
GAGGCCGGCTTACGTCAGCCTCCTGGCTGACGTAAGCCGGCCTCACACTC,6700
GAGGCCGGATGCGGTCAGCCTCCTGGCTGACCGCATCCGGCCTCACACTC (5mC at 32),3320
GAGGCCGGCTGCGGTCAGCCTCCTGGCTGACCGCAGCCGGCCTCACACTC (5mC at 12 32),3330
GAGGCCGGATGGCGTCAGCCTCCTGGCTGACGCCATCCGGCCTCACACTC (5mC at 33),10600

# For quick reference, copied from above (study 4):
Sequence,median fluorescence [a.u.]
GAGGCCCGCTGACGTCAGCCTCCTGGCTGACGTCAGCGGGCCTCACACTC (5mC at 7 37),10600
GAGGCCGGTTGACGTCAGCCTCCTGGCTGACGTCAACCGGCCTCACACTC,8330
GAGGCCGACGACGCCGTGCCTCCTGGCACGGCGTCGTCGGCCTCACACTC (5mC at 9 15 29 35),3940
GAGGCCGACGACTTCGTGCCTCCTGGCACGAAGTCGTCGGCCTCACACTC (5mC at 9 15 29 35),3170
GAGGCCGACCGCGTCGTGCCTCCTGGCACGACGCGGTCGGCCTCACACTC (5mC at 9 15 29),4060
GAGGCCGACGACGTCGCGCCTCCTGGCGCGACGTCGTCGGCCTCACACTC (5mC at 9 15 17 29 35),4600
